Published values of several laboratories.
Each line is one published result; not all experiments were run side by side. ± marks the error that the study gave.

Compound	test	system	conditions	Cmax
Cc1cn(C(=O)c2c(-c3c(Cl)cc(Cl)cc3Cl)noc2C(C)(C)F)c2cccc(/C=C/C(=O)O)c12		human patients	250 mg bid, cycle 1 day 1	10200 ng/mL
O=C(Nc1cnccc1Cl)N1CCN(Cc2ccc3c(c2)OC(F)(F)O3)CC1		human healthy young men, plasma	oral, 75 mg once daily, day 1, multiple dose mean	638 ng/mL
CNC(=O)n1ccc2cc(Oc3ccnc(NC(=O)c4ccc(C5CCN(CCO)CC5)cc4)c3)c(OCCOC)cc21		healthy human, plasma	oral, 35 mg, geometric mean, alone	6.8 ng/mL
C[C@H](O)c1cc(C(=O)N[C@@H](C)Cn2ccc(-c3ccc(C#N)c(Cl)c3)n2)n[nH]1		human, fasted, plasma	oral, 300 mg 14C-darolutamide solution, geometric mean	2490 ng/mL
Cc1cc(C)c(CNC(=O)c2cc(Cl)c3c(c2C)O[C@@](C)([C@H]2CC[C@H](N(C)C)CC2)O3)c(=O)[nH]1	mean	healthy male humans, plasma	oral, 25 mg, day 1, alone, fluconazole group	113 ng/mL
C[C@]12C=CC(=O)C=C1CC[C@@H]1[C@@H]2[C@@H](O)C[C@@]2(C)[C@H]1CC[C@]2(O)C(=O)CO		human	oral, dose not given	341 ng/mL
N#Cc1cc(NC(=O)[C@H]2c3ccccc3C(=O)N(CC(F)(F)F)[C@@H]2c2cccnc2)ccc1F		human, plasma	oral, 900 mg, median	904 ng/mL
CCNCCCNC/C=C\CNCCCNCC	LC-MS/MS	human cancer patients, plasma	intravenous infusion 60 min, 100 mg, median, cycle 1	396 ng/mL
Cc1nc(-c2ccc(OCC(C)C)c(C#N)c2)sc1C(=O)O		human, plasma	oral, 10 mg once daily, together with: verinurad 2.5 mg	274 ng/mL
COc1ccc2[nH]c([S@+]([O-])Cc3ncc(CO)c(OC)c3C)nc2c1		human, dried plasma spots	5 mg racemic omeprazole, together with: fluvoxamine and voriconazole	38.8 nM
C=CC(=O)N1CCC(Oc2cc3c(Nc4ccc(Cl)c(Cl)c4F)ncnc3cc2OC)CC1		human, fed, plasma	oral, 16 mg, geometric mean	59.9 ng/mL
CCn1cc(C(=O)N2CCOCC2)c(=O)c2cc(NC3Cc4ccccc4C3)cnc21		humans, fasted, plasma	oral, 300 mg, single dose, suspension	692 ng/mL
Cc1cc(Nc2ccc(S(F)(F)(F)(F)F)cc2)n2nc(C(C)(F)F)nc2n1	LC-MS/MS	human vivax malaria patients, plasma	oral, 800 mg, mean	10100 ng/mL
CCOc1c([C@H](C)n2nc(C)c3c(N)ncnc32)cc(Cl)c(F)c1[C@@H]1CNC(=O)C1		human, DLBCL, plasma	oral, 20 mg, day 15, geometric mean	1960 nM
C[C@H](CCC(=O)NCCS(=O)(=O)O)[C@H]1CC[C@H]2[C@@H]3[C@H](O)C[C@@H]4C[C@H](O)CC[C@]4(C)[C@H]3C[C@H](O)[C@]12C		human, plasma	concentration not given, endogenous baseline diurnal	33.4 ± 3.6 nM
CO[C@@H]1[C@H](OC(=O)N2CC(CCN3CCOCC3)C2)CC[C@]2(CO2)[C@H]1[C@@]1(C)O[C@@H]1CC=C(C)C		humans, plasma	subcutaneous, 0.2 mg twice weekly, first dose	0.18 ± 0.09 ng/mL
CO[C@@H]1[C@H](N(C)C(=O)c2ccccc2)C[C@H]2O[C@]1(C)n1c3ccccc3c3c4c(c5c6ccccc6n2c5c31)C(=O)NC4		human patients, induction therapy, plasma	oral, 50 mg twice daily, day 21, mean	11000 ng/mL
CC#CC(=O)N1CCC[C@H]1c1nc(-c2ccc(C(=O)Nc3ccccn3)cc2)c2c(N)nccn12		human, plasma	oral, 400 mg single dose	1940 ng/mL
COc1ccc([C@@H](O)c2cc(-c3ncnc4cc(N5CCOCC5)ccc34)c(F)cc2Cl)nn1	LC-MS	human	oral, 200 mg twice daily, single dose	1030 ng/mL
Nc1ccn([C@@H]2O[C@H](CO)[C@@H](O)C2(F)F)c(=O)n1	HPLC-UV	human, plasma	intravenous, 800 mg/m^2, median, after paricalcitol	11600 ng/mL

Repeated from above:
Compound	test	system	conditions	Cmax
CNC(=O)n1ccc2cc(Oc3ccnc(NC(=O)c4ccc(C5CCN(CCO)CC5)cc4)c3)c(OCCOC)cc21		healthy human, plasma	oral, 35 mg, geometric mean, alone	6.8 ng/mL
